Assay results of several laboratories.
A part holds a random share of what one study measured. Several values in a cell are separate wells, animals, samples, runs or records.
Chain of UniProt Q12809 (whole entry, looked up): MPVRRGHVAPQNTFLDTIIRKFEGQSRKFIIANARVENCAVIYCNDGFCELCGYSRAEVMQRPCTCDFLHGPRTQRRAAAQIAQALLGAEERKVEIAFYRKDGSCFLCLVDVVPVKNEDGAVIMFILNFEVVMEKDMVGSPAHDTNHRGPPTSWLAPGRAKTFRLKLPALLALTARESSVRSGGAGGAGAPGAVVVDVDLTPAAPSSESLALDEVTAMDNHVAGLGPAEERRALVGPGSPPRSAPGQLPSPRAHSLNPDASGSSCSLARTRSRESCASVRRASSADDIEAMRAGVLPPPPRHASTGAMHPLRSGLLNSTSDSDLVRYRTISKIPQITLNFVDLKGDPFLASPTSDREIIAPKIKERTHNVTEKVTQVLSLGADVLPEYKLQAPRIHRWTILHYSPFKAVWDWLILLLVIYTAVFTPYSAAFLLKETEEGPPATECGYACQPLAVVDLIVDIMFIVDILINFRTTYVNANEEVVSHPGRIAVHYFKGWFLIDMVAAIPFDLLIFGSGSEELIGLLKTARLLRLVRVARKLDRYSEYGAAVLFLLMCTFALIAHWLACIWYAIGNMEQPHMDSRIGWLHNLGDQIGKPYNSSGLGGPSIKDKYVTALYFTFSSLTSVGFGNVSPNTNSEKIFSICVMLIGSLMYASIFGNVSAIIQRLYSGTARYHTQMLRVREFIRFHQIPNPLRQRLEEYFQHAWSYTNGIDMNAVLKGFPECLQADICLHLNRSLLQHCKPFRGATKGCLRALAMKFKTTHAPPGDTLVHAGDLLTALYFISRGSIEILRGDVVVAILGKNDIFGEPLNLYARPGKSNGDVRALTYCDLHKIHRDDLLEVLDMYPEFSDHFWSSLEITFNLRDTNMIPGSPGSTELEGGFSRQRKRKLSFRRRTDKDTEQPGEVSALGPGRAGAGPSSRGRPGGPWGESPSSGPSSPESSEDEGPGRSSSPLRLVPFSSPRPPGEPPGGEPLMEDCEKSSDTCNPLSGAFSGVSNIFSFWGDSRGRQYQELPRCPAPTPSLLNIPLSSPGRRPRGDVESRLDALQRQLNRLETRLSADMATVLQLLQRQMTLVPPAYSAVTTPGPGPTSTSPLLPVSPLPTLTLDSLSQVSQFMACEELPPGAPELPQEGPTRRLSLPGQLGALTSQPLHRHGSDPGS

Study 1
SMILES: C[C@@H]1CN(c2ccc(-c3cc(C(=O)NCCOCCOCCOCCOCCNC(=O)/C=C/c4[nH]cc(C(=O)N[C@@H](CC(N)=O)c5ccc(F)c(Cl)c5)c4-c4ccc(Cl)cc4F)ccc3F)cc2NC(=O)c2c[nH]c(=O)cc2C(F)(F)F)C[C@H](C)N1C
Read-out: thermal unfolding
Technique: differential scanning fluorimetry
Tested at: 5.5 µM
Direction: higher = more unfolded
DCAF1: DDB1- and CUL4-associated factor 1 (DCAF1, Homo sapiens, UniProt Q9Y4B6)
Chain of UniProt Q9Y4B6 (whole entry, looked up): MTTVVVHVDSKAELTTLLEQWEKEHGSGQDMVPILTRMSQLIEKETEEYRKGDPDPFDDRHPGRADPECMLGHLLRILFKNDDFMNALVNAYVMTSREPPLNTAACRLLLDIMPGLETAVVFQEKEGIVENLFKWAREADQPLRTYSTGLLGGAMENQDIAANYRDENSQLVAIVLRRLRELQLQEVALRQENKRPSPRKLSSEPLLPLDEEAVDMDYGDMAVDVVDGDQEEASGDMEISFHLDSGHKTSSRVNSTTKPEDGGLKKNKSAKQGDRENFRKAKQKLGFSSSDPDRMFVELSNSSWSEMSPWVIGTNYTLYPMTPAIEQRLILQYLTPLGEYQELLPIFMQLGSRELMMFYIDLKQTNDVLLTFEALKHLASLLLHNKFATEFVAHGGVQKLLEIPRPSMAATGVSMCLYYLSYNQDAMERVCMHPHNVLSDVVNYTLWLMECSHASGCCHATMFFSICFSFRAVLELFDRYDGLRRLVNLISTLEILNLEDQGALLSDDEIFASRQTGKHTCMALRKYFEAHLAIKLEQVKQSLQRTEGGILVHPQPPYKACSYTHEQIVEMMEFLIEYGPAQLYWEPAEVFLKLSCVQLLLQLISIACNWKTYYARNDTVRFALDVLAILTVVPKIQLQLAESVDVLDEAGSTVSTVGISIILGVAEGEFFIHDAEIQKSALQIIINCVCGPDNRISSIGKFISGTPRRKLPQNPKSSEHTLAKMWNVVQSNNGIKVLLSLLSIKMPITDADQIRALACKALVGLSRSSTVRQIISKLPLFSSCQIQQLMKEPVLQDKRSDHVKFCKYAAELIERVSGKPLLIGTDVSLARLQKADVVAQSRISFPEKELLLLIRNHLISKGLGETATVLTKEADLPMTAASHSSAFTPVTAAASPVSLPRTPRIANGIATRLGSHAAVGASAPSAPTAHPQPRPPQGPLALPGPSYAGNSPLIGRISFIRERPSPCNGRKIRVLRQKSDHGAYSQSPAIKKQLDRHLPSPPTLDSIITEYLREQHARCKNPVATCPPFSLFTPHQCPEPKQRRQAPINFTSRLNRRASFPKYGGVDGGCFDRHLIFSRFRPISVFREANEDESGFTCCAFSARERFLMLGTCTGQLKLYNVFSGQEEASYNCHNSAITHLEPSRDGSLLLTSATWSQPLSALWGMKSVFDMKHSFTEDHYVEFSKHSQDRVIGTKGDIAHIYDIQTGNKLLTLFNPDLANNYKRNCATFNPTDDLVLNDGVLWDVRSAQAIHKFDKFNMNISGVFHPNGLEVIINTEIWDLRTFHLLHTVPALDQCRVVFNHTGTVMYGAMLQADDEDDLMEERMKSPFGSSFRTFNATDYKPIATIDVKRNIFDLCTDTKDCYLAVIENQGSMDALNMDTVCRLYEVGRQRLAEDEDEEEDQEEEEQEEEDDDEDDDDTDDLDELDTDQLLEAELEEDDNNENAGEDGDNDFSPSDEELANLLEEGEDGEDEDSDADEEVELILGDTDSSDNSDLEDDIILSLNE
WDR5: WD repeat-containing protein 5 (WDR5, Homo sapiens, UniProt P61964)
| target | conditions | SYPRO Orange fluorescence [a.u.] |
| --- | --- | --- |
| DCAF1 | 71.61 °C | 53800 |
| DCAF1 | 68.21 °C | 57800 |
| DCAF1 | 49.8 °C | 15100 |
| WDR5 | 63.21 °C | 14200 |
| WDR5 | 34.2 °C | 13200 |
| WDR5 | 59.81 °C | 15700 |
| WDR5 | 35.6 °C | 13300 |
| DCAF1 | 70.01 °C | 55900 |
| DCAF1 | 85.41 °C | 39700 |
| DCAF1 | 50.4 °C | 15500 |
| WDR5 | 68.41 °C | 14700 |

Study 2
Target: Membrane-associated tyrosine- and threonine-specific cdc2-inhibitory kinase (PKMYT1, Homo sapiens, UniProt Q99640)
Chain of UniProt Q99640 (whole entry, looked up): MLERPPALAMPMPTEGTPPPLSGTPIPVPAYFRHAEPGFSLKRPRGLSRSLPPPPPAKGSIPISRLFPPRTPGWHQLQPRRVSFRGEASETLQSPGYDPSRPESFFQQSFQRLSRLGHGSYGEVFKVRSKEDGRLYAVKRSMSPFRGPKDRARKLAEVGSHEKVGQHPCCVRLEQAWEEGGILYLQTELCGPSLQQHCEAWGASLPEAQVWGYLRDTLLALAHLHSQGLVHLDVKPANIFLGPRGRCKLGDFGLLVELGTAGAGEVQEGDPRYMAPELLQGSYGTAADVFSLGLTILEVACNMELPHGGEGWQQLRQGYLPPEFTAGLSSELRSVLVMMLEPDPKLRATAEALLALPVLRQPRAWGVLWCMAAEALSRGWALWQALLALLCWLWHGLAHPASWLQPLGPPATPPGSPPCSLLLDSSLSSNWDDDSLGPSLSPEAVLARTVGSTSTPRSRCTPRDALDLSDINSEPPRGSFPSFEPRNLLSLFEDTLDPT
Read-out: binding
Technique: HTRF
Tested at: 37.04 nM
| Structure (SMILES) | inhibition |
| --- | --- |
| Cc1ccc(O)c(C)c1-c1cnc2[nH]c(-c3cnc(N4CCC(CN5CCN(c6c(F)cc(NC7CCC(=O)NC7=O)cc6F)CC5)CC4)nc3)cc2c1C#N (racemic) | 66.9% and 67.5% |
| Cc1ccc(O)c(C)c1-c1cnc2[nH]c(-c3cnc(N4CCC5(CC4)CC(N4CCN(c6ccc7c(c6)C(=O)N(C6CCC(=O)NC6=O)C7=O)CC4)CO5)nc3)cc2c1C#N (mixture of isomers) | 95.1% and 94.4% |
| Cc1ccc(O)c(C)c1-c1cnc2[nH]c(-c3cnc(N4CCC(CN5CCN(c6ccc(NC7CCC(=O)NC7=O)c(F)c6)CC5)CC4)nc3)cc2c1C#N (racemic) | 95.9% and 95.7% |
| Cc1ncc(-c2cc3c(N)c(-c4c(C)ccc(O)c4C)cnc3[nH]2)cn1 | 35.8% and 37.4% |
| Cc1ccc(O)c(C)c1-c1cnc2[nH]c(-c3cnc(N4CCC(CCN5CCN(c6cc7c(cc6F)c(N6CCC(=O)NC6=O)nn7C)CC5)CC4)nc3)cc2c1C#N | 97.9% and 98% |
| Cc1ccc(O)c(C)c1-c1cnc2[nH]c(-c3cnc(N4CCC(CCN5CCN(c6ccc(N7CCC(=O)NC7=O)cc6F)CC5)CC4)nc3)cc2c1C#N | 97.5% and 98.8% |

Study 3
Target: Amine oxidase [copper-containing] 3 (AOC3, Homo sapiens, UniProt Q16853)
Chain of UniProt Q16853 (whole entry, looked up): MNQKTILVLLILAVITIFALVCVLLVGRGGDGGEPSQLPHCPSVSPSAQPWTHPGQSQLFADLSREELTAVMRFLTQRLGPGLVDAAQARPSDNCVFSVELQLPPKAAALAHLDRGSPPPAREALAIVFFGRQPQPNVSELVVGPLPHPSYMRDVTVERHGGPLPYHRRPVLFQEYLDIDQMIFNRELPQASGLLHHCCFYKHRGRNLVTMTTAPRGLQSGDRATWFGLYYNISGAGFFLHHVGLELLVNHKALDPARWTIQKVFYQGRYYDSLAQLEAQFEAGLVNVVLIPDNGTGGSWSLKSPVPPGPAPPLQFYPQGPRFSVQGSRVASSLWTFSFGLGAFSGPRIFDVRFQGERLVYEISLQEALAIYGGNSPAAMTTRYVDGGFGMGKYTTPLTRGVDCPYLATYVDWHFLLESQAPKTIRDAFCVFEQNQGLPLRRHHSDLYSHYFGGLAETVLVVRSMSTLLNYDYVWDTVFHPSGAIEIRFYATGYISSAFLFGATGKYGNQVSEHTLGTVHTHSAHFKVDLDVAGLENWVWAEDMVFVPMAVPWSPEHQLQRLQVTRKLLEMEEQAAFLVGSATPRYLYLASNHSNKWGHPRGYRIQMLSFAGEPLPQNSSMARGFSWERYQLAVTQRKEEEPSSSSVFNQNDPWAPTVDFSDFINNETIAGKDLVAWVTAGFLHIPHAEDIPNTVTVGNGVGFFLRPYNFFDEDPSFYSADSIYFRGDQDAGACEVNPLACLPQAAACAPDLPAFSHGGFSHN
Read-out: enzyme activity
Mode: inhibitor
Technique: fluorescence
| SMILES | IC50 [nM] |
| --- | --- |
| Cc1c[nH]c2c(=O)[nH]c(=S)n(Cc3cc(F)cc(OC/C(=C/F)CN)c3)c12 | 35 |
| Cc1nc2c([nH]1)c(=O)[nH]c(=S)n2Cc1cccc(OC/C(=C/F)CN)c1 | 20 |
| CC(=O)NC/C(=C\F)COc1cccc(Cn2c(=S)[nH]c(=O)c3[nH]cnc32)c1 | > 30000 |
| NC/C(=C\F)COc1cccc(Cn2c(=S)[nH]c(=O)c3[nH]ccc32)c1F | 4 |
| NC/C(=C\F)COc1cccc(Cn2c(=O)[nH]c(=O)c3[nH]cnc32)c1 | 5 |

Mixed results
| Structure (SMILES) | target | test | test system | conditions | endpoint | value |
| --- | --- | --- | --- | --- | --- | --- |
| CCN1/C(=C/C=C2\CCCC(/C=C/C3=[N+](CC)c4ccccc4C3(C)C)=C2NCCCCN2CCC(C(=O)c3ccc(NS(C)(=O)=O)cc3)CC2)C(C)(C)c2ccccc21 | Voltage-gated inwardly rectifying potassium channel KCNH2 (KCNH2, Homo sapiens, UniProt Q12809) | ligand displacement, radioligand | HEK293 | 80 min, cell membranes | IC50 | 30 nM |

Repeated from above (study 1):
| target | conditions | SYPRO Orange fluorescence [a.u.] |
| --- | --- | --- |
| WDR5 | 63.21 °C | 14200 |
| DCAF1 | 71.61 °C | 53800 |
| DCAF1 | 50.4 °C | 15500 |
| WDR5 | 59.81 °C | 15700 |
